Results from different studies.
Protocols differ between the studies behind these lines. ± gives the spread as reported.
Organism: Salmonella typhimurium

SMILES | test | system | conditions | how to read | measurement | value
O=[N+]([O-])c1ccc(N2CCN(CCC(O)c3ccc(F)cc3)CC2)c(C(F)(F)F)c1 (stereo not drawn) | SOS/umu test | TA1535/pSK1002 | 0.125 mg/mL, 4 h, with S9, full range |  | survival | 42.6%
COc1cccc(-c2n[nH]c(SCc3ccccn3)n2)c1OC | Ames test, preincubation | TA1537 | 2.0 mg/plate, without S9 |  | revertant colonies per plate | 1
O=NN1CCN(C2CCCC2)CC1 | mutagenicity, Ames plate incorporation | TA100 | 150 µg/plate, 3 d, without S9, methanol |  | revertant colonies per plate | 137 ± 18
O=[N+]([O-])c1ccc(N2CCC(NCCC(O)c3ccc(F)c4ccccc34)CC2)c(C(F)(F)F)c1 (stereo not drawn) | SOS/umu test | TA1535/pSK1002 | 0.063 mg/mL, 4 h, without S9, full range |  | survival | 93%
N#C[C@@]1(n2ccc(N)nc2=O)O[C@H](CO)[C@@H](O)[C@H]1O |  | TA100 | 25 µM, without S9 | baseline: control | viability | 93%
CC(C)N(C)N=O | mutagenicity, Ames plate incorporation | TA100 | 50 µg/plate, 3 d, without S9, methanol |  | revertant colonies per plate | 158 ± 21
Cc1cc(C(=O)NC(C)(C)COc2cccc3c2C(N)=NS(=O)(=O)N3)cc(C)n1 | Ames test, initial | TA98 | 1.50 µg/plate, added: rat liver S9 | baseline: solvent control | revertant ratio | 0.8
Fc1ccc(C2=CCNCC2)cc1 | genotoxicity, SOS/umu test | TA1535/pSK1002 | 0.25 mg/mL, 4 h, without S9, full range |  | induction factor | 0.9
CN(N=O)c1ccc(F)cc1 | mutagenicity, Ames plate incorporation | TA98 | 150 µg/plate, 3 d, without S9, methanol |  | revertant colonies per plate | 20 ± 3
OC(CCN1CC=C(c2ccc(F)cc2)CC1)c1ccc(F)c2ccccc12 (stereo not drawn) | genotoxicity, SOS/umu test | TA1535/pSK1002 | 0.063 mg/mL, 4 h, without S9, lower range |  | induction factor | 0.7
CC(=O)N1CCC(C(=O)N2CCN3C(=O)c4cc(-c5ccccc5)ccc4NC(=O)C3C2)CC1 (stereo not drawn) |  | TA100 | 158 µg/plate, with rat liver S9 |  | revertants per plate | 108
CC(C)N(N=O)C(C)C | mutagenicity, Ames plate incorporation | TA1535 | 2500 µg/plate, without S9, methanol |  | revertant colonies per plate | 21 ± 3

Excerpt of the above:
SMILES | test | system | conditions | how to read | measurement | value
COc1cccc(-c2n[nH]c(SCc3ccccn3)n2)c1OC | Ames test, preincubation | TA1537 | 2.0 mg/plate, without S9 |  | revertant colonies per plate | 1
O=NN1CCN(C2CCCC2)CC1 | mutagenicity, Ames plate incorporation | TA100 | 150 µg/plate, 3 d, without S9, methanol |  | revertant colonies per plate | 137 ± 18
